Results gathered from unrelated publications.
Each numbered part is a random draw from the data of one study; scales do not carry over between parts. Substitutions count along the parent as printed.

Study 1
Target: Myc proto-oncogene protein, bHLH-zipper, MAX partner unstated (MYC, Homo sapiens, UniProt P01106, residues 368-449)
UniProt P01106, sequence (368-449, looked up): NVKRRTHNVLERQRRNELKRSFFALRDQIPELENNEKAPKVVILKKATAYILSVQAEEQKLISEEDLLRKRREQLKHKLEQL
Technique: protein-binding microarray
Molecule type: double-stranded DNA, one strand shown
Sample: in vitro
Concentration: not given
Notes: k-mer, scored over probes, only values ≥0.25
Reading: higher = stronger binding
With `CCCCACGC` the E-score was 0.414.
For `CCCCGCGC`, the E-score was 0.265.
The E-score of `GCGTGCCC` is reported as 0.401.
The E-score of `ACAAGCAT` is reported as 0.26.
With `CTACCCAC` the E-score was 0.297.
`ACACGTGG` gave an E-score of 0.497.
For `ATGCGACA`, the E-score was 0.278.
With `CGTGATGC` the E-score was 0.281.
The E-score of `GCACGCCC` is reported as 0.274.
For `GCGCATGA`, the E-score was 0.359.
For `CCACAAGG`, the E-score was 0.281.
With `CCAACCAC` the E-score was 0.324.
The E-score of `GGCACGCC` is reported as 0.338.
`GCGCGTGA` gave an E-score of 0.349.
`CCGGCCAC` has an E-score of 0.266.
`CGCATGCG` has an E-score of 0.469.
With `CGGGGCAC` the E-score was 0.29.
`CAACACAC` has an E-score of 0.26.
With `AAATGTGC` the E-score was 0.299.
`TCGTGGCA` has an E-score of 0.342.
The E-score of `ACTGCACG` is reported as 0.307.
The E-score of `GAGCGTGA` is reported as 0.254.
The E-score of `ATGCACGC` is reported as 0.412.
The E-score of `GCCGCCAC` is reported as 0.277.

Study 2
Target: CCNB3, cyclin fold, Cln2 fusion (human)
Technique: yeast growth competition, sequencing
Sample: yeast
Notes: weak parent motif
Baseline: not given
Reading: higher = stronger binding
Starting sequence: CDKN1A docking peptide (human); SKACRRLFGPVDS; partner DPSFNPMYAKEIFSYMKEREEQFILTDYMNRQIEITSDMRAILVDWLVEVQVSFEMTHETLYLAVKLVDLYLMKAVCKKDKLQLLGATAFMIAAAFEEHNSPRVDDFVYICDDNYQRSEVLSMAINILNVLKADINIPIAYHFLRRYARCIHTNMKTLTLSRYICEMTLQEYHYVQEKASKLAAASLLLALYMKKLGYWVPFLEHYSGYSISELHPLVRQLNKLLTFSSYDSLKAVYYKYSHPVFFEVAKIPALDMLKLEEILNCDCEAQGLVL
`SKWCRRLFGPVDS [A3W]`: “normalised enrichment score” 0.0841.
`SKAGRRLFGPVDS [C4G]` — result for “normalised enrichment score”: 0.289.
For `SKACRRLFFPVDS [G9F]`, “normalised enrichment score” read 0.612.
`SKICRRLFGPVDS [A3I]`: “normalised enrichment score” 0.639.
`SKACRDLFGPVDS [R6D]`: “normalised enrichment score” 0.0235.
`SKACRRLFGPKDS [V11K]` — result for “normalised enrichment score”: 0.261.
`SKVCRRLFGPVDS [A3V]` — result for “normalised enrichment score”: 1.19.
`SKACRHLFGPVDS [R6H]`: “normalised enrichment score” 0.381.
For `SKACLRLFGPVDS [R5L]`, “normalised enrichment score” read 0.365.
`SKACRRLFGNVDS [P10N]` — result for “normalised enrichment score”: 0.529.
`SGACRRLFGPVDS [K2G]`: “normalised enrichment score” 0.72.
`SKACRRLFGPYDS [V11Y]` — result for “normalised enrichment score”: 0.665.
`SKACRRLFGSVDS [P10S]` — result for “normalised enrichment score”: 0.604.
Under “normalised enrichment score”, `SKACRRLFGEVDS [P10E]` is recorded as 0.425.
For `SKACRRLFGPVCS [D12C]`, “normalised enrichment score” read 0.366.
`SKAFRRLFGPVDS [C4F]` — result for “normalised enrichment score”: 0.0369.
`SKFCRRLFGPVDS [A3F]`: “normalised enrichment score” 0.275.
`SKTCRRLFGPVDS [A3T]` — result for “normalised enrichment score”: 0.534.

Study 3
Target: RNA binding protein fox-1 homolog 2, RRM domain, GST-SBP tag (RBFOX2, Homo sapiens, UniProt O43251-10, residues 100-194)
Technique: RNA Bind-n-Seq
Molecule type: RNA
Sample: in vitro
Concentration: 365 nM
Notes: natural RNA segment, single round, ends assumed
Baseline: no-protein control
Reading: higher = stronger binding
Constant ends, left off below: GGGAGUUCUACAGUCCGACGAUC … UGGAAUUCUCGGGUGCCAA
Under “RBNS enrichment (R)”, `AAGAAUUUUCAAAAUUGGUUUGUUCAGUGUGGAGUAUAUUCAGCAGUAUUUUUGACAUUUUUCUUUAGAAAAAGGAAGAGCUAAAGGAAUUUUAUAAGUUUUGUUACAUG` is recorded as 0.739.
`UCGGGCACCACCAGCCAUCCCCGAGUGCCCUGUAGCCACUCACCACUGCUGCCACCUCUCUGGCCAAUGGCCCUUUCACUGGCCUGGUGACUGGAAUGUGGGCAGCGCCC` — result for “RBNS enrichment (R)”: 0.38.
For `UUCCAGCUGUUCCUGCCCGAGCGGUCCCAGGGUGUGCUGGGAACUGAUUCCCCUCCUUUGACUUCUGCCUAGAAGCUUGGGUGCAAAGGGUUUCUUGCAUCUGAUCUUUC`, “RBNS enrichment (R)” read 0.459.
Under “RBNS enrichment (R)”, `AACCUAAGUGCUGCCCCAUCCUUCACCUUUACCCUAGAAAAUCUGAGAAUCCAUUGGUGUGUACUGUGUGACACAAUGCCAACAAGCCUCUGGUUUCUAAUACUGGCAGG` is recorded as 0.383.
`AUGGAAAAGCUCCCCUUAUCCAACAGAGUUUAAAAGUAGUGACUUGGGUUUUUGCGAGUGCUUUGUUUACUAAGGACUUUGGGGAGGAACCAUGCUAAGCCAUGACCAGU`: “RBNS enrichment (R)” 1.27.
`CGCAGGCCACAGCAGACAGGGUGGGAGCCCUGUACAGCUUGAUAACCCUUAAUAAAGAAGGGACUUUAUCUGGUUGUGGCAUCUUUUUUUUUCCCCCACGCAGCAGUUUG`: “RBNS enrichment (R)” 0.553.
Under “RBNS enrichment (R)”, `ACUUGCUACUAGUGUUGUUAAUGAAGUAUAGGCCUUGGAACAUUUAAGAAAACUGGUCUUCAGAUAGUUAAGGGCUUGGGAUAAUUUAAGUGAAAAGUGAGAUCAGUAAU` is recorded as 1.28.
`GACAGUCUUGCAUUUUGUUUUGUCUCGUGAUGGUGGUGGUGGUAGGGGUACGCUUAGGUGGGCAGUCCUGUGGGGAAAACAUCUUGUCUCCAUCUUGCUAGGAAGAACCA`: “RBNS enrichment (R)” 6.94.

Study 4
Target: UBE2Q2 UBC core domain (UniProt Q8WVN8)
UniProt Q8WVN8, sequence (whole entry, looked up): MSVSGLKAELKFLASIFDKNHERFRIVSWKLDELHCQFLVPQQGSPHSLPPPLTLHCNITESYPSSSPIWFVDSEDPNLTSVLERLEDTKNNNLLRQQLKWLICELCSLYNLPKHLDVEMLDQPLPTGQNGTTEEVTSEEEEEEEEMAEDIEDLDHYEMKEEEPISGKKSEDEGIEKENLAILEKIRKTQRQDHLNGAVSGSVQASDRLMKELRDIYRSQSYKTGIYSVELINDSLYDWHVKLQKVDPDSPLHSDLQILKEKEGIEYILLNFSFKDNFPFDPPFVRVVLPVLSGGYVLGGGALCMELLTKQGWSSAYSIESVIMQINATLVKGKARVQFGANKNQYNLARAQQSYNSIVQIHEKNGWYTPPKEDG
Technique: yeast two-hybrid
Sample: yeast
Notes: mostly zero background
Baseline: not given
Reading: higher = stronger interaction
B1: TRIM47 RING domain (UniProt Q96LD4); chain MDGSGPFSCPICLEPLREPVTLPCGHNFCLACLGALWPHRGASGAGGPGGAARCPLCQEPFPDGLQLR
B2: MDM2 RING domain (UniProt Q00987); chain TQDKEESVESSLPLNAIEPCVICQGRPKNGCIVHGKTGHLMACFTCAKKLKKRNKPCPVCRQPIQMIVLTYFP
B3: TRIM32 RING domain (UniProt Q13049); chain NLDALREVLECPICMESFTEEQLRPKLLHCGHTICRQCLEKLLASSINGVRCPFCSKITRITSLTQ
B4: PJA2 RING domain (UniProt O43164); chain DHTAIGQEQCCPICCSEYIKDDIATELPCHHFFHKPCVSIWLQKSGTCPVCRRHFPPAVIEA
`AAQLLEEKLTCAICLGLYQDPVTLPCGHNFCGACIRDWWDRCGKACPECREPFPDGAELR (TRIM65 RING domain (UniProt Q6PJ69))` — result for “lacZ reporter activity”: 0.
`EIKDYKARLTCPCCNMRKKDAVLTKCFHVFCFECVKTRYDTRQRKCPKCNAAFGANDFHR (RNF20 RING domain (UniProt Q5VTR2))`: “lacZ reporter activity” 0.
Under “lacZ reporter activity”, `B1 (TRIM47 RING domain)` is recorded as 0.
`B2 (MDM2 RING domain)`: “lacZ reporter activity” 0.
For `EDVLSKDAGECAICLEELQQGDTIARLPCLCIYHKGCIDEWFEVNRSCPEHPSD (ZNRF2 RING domain (UniProt Q8NHG8))`, “lacZ reporter activity” read 0.
`B3 (TRIM32 RING domain)` — result for “lacZ reporter activity”: 0.
Under “lacZ reporter activity”, `SNNDLASLFECPVCFDYVLPPILQCQSGHLVCSNCRPKLTCCPTCRGPLGSIRNLA (SIAH1 RING domain (UniProt Q8IUQ4))` is recorded as 0.
`B4 (PJA2 RING domain)` — result for “lacZ reporter activity”: 0.
